Experimental data collected from several papers.
Parts stem from different laboratories: compare values within a part only.
Sequence of UniProt Q9UL54 (whole entry, looked up): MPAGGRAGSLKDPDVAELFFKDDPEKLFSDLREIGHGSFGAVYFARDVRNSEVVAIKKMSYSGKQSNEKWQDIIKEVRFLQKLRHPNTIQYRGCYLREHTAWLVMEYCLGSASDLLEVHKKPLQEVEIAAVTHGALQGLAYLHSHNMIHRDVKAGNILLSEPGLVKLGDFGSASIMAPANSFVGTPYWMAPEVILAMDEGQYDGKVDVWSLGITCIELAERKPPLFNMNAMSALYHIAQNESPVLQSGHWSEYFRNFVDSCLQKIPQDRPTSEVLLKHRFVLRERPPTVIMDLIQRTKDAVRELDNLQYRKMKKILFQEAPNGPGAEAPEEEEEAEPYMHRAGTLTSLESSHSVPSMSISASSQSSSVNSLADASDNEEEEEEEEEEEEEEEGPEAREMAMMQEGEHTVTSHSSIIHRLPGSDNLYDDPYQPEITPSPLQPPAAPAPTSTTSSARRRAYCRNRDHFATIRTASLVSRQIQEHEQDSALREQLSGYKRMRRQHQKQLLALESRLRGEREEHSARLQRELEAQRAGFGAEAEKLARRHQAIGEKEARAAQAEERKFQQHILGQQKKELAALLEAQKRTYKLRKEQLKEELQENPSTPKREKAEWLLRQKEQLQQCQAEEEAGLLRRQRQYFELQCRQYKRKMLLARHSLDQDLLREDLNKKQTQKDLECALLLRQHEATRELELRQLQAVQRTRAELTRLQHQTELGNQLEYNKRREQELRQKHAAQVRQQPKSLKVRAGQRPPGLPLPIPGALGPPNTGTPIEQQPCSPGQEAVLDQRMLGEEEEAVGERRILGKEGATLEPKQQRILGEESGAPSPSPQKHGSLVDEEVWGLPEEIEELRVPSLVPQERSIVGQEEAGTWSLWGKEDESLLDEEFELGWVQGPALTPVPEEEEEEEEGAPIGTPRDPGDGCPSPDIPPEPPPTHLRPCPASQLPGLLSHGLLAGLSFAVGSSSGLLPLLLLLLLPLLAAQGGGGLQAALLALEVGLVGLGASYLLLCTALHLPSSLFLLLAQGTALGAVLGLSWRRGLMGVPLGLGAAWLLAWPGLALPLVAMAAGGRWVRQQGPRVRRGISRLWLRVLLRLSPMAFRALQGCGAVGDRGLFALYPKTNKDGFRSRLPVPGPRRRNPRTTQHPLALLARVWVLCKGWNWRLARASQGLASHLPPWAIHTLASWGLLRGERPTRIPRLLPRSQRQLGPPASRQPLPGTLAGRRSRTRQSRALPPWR
Sequence of UniProt Q04912 (whole entry, looked up): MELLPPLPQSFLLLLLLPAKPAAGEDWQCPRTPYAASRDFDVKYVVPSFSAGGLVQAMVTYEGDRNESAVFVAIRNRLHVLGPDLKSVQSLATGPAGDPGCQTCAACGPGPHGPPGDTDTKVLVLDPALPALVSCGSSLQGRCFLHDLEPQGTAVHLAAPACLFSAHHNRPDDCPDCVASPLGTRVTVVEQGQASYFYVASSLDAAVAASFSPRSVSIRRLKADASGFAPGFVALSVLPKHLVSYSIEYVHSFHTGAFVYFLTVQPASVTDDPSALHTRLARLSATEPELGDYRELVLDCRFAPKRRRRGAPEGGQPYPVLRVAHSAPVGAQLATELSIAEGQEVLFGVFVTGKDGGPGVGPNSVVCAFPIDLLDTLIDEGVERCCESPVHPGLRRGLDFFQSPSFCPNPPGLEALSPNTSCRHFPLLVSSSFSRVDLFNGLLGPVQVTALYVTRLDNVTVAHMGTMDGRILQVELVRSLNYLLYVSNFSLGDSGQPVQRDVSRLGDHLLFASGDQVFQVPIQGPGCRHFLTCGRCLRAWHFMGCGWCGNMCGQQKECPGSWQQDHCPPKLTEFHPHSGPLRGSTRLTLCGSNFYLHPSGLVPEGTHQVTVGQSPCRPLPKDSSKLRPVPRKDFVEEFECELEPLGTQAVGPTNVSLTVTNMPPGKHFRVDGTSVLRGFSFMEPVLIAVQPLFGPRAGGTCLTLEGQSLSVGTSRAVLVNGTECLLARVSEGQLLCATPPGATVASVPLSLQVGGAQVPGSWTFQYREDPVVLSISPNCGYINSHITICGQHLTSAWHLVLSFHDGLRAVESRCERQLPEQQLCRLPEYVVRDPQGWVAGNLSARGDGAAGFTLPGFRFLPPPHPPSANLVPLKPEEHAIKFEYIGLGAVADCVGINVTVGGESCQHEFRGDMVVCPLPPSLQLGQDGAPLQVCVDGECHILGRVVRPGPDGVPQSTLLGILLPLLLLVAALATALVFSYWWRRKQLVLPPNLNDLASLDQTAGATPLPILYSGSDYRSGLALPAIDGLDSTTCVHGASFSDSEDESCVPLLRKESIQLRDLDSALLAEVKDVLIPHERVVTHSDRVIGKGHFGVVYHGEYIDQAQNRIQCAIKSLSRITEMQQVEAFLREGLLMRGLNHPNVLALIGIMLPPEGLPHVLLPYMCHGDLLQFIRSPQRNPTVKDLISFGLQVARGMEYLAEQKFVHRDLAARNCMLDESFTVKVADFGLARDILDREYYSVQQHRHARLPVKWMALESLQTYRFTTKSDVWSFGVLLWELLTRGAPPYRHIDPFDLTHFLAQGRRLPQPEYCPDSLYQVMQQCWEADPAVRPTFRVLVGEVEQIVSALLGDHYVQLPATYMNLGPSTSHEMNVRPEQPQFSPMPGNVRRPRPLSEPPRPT
Sequence of UniProt P42685 (whole entry, looked up): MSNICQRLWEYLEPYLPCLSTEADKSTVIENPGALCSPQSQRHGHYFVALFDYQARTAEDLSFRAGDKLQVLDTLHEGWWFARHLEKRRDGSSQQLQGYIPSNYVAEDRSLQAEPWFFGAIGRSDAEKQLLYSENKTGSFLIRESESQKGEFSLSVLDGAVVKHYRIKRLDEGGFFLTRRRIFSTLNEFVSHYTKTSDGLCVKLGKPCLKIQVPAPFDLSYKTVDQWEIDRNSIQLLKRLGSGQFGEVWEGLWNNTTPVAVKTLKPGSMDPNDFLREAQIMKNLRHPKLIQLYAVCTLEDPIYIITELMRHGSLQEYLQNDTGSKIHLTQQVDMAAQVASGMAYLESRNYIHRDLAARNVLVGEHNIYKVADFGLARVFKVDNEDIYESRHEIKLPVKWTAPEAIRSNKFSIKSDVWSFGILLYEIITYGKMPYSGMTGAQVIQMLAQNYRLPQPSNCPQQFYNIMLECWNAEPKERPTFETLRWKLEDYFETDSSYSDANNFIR
Sequence of UniProt Q9HC98 (whole entry, looked up): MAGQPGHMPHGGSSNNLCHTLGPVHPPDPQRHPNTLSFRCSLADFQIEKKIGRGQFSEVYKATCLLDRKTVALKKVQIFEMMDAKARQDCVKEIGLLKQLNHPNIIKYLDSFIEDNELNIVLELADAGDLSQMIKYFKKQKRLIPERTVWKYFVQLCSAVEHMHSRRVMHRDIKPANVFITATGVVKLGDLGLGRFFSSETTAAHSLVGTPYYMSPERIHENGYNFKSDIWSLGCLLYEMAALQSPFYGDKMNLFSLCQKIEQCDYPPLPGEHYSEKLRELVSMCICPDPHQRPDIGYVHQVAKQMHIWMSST
Sequence of UniProt Q02763 (whole entry, looked up): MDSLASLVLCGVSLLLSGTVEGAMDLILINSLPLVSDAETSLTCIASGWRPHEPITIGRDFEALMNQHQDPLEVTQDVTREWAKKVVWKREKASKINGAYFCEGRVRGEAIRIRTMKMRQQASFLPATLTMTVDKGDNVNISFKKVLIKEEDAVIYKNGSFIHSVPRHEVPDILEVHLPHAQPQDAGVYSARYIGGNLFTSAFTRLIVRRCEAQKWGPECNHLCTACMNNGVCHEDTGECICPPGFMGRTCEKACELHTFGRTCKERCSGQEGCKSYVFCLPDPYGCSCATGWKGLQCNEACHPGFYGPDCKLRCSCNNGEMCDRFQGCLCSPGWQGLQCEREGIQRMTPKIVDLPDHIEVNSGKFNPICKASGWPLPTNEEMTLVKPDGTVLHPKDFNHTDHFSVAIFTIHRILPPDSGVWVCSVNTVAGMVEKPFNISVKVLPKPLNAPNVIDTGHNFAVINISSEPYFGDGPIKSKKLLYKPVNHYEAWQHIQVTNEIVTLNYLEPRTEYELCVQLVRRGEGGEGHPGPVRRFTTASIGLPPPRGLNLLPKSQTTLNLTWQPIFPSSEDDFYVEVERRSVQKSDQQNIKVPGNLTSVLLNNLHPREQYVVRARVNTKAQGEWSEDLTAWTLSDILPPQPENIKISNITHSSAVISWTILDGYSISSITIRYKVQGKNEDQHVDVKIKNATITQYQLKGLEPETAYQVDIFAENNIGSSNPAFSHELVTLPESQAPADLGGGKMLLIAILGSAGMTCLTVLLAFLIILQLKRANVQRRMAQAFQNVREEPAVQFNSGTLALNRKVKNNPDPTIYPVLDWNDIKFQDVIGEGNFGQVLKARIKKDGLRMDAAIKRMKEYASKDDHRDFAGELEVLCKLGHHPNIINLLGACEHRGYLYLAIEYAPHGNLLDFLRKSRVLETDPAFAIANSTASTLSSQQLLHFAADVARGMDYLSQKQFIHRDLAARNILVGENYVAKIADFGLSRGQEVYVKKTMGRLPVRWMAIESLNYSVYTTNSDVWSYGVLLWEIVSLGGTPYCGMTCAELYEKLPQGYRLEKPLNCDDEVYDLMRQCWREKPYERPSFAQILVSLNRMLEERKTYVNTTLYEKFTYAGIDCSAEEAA

Series 1
Target: Ras GTPase-activating protein-binding protein 1, full length (G3BP1, Homo sapiens, UniProt Q13283)
Sequence of UniProt Q13283 (whole entry, looked up): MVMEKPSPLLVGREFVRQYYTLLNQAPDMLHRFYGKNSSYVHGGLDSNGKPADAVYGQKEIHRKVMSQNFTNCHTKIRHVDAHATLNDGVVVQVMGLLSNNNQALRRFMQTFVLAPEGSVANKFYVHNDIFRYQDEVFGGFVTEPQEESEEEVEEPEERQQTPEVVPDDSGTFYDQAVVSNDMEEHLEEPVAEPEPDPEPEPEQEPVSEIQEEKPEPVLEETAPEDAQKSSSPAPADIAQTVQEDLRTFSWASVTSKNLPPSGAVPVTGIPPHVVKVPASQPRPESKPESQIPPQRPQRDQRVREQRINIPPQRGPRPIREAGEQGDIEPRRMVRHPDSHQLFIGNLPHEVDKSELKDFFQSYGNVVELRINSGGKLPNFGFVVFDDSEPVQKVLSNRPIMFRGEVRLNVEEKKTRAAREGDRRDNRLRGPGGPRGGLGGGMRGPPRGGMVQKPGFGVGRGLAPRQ
Method: RNA Bind-n-Seq
Molecule type: RNA
Medium: in vitro
Concentration: 200 nM
Notes: whole 134-nt RNA, ends assumed
Together with: 150 mM LiCl
Baseline: input library
Direction: higher = stronger binding
Endpoint: log2 enrichment
All molecules: 7-deaza-guanosine replaces G
Shared flanks, not repeated: GGGAGUUCUACAGUCCGACGAUC … UGGAAUUCUCGGGUGUCAAGG
AGUUACUCAGUUCAUUUUGGAUAACUACAUUGAAAGAGGAAAAGGAUCUGCUUGCAGAAUAGUUUGUACUCAGCCAAGAAGAAUUAGUGC: -3.27
UGGCCCUGGUGGCAUGCGGGGAGGAAGAGGUGGCCUCAUAGAUCGUGGUGGUCCCGGUGGAAUGUUCAGAGGUGGCCGUGGUGGAGACAG: 0.574
GUCCUGUGCUACACAUCGUAUGUACCGAAUCGGGAAAGGGUUUUUGGGUUUUUUUGGGAAAGUAUUAUGUUACGCCGUUCGGAUCUGCAC: -1.26
CUGUGCUACACAUCGUAUGUACCGAAUCGGGUUUUUUUGGGUUUUUUUGGGGUUUUUUUGGGAAAGUAUUAUGUUACGCCGUUCGGAUCU: 1.53
CAAGUCCUGUGCUACACAUCGUAUGUACCGAAUCGGGUUUGGGGUUUGGUUUGGGAAAGUAUUAUGUUACGCCGUUCGGAUCUGCACUUC: -1.03
CUGUGCUACACAUCGUAUGUACCGAAUCGGGGAAAAAAAGGGAAAAAAAGGGGAAAAAAAGGAAAGUAUUAUGUUACGCCGUUCGGAUCU: 0.216
UCAAGUCCUGUGCUACACAUCGUAUGUACCGAAUCGGAAAGGUGGAAAAAAAGGAAAGUAUUAUGUUACGCCGUUCGGAUCUGCACUUCC: -0.123
UCCUGUGCUACACAUCGUAUGUACCGAAUCAAACCCCCCCAAACCCCCCCAAAUUUAAAAAAGUAUUAUGUUACGCCGUUCGGAUCUGCA: 0.251

Series 2
Sequence: B1 (IAA8)
Method: two-hybrid
Direction: higher = firmer interaction
Endpoint: positive tests
B1: IAA8 (Arabidopsis thaliana, UniProt Q38826); chain MSYRLLSVDKDELVTSPCLKERNYLGLSDCSSVDSSTIPNVVGKSNLNFKATELRLGLPESQSPERETDFGLLSPRTPDEKLLFPLLPSKDNGSATTGHKNVVSGNKRGFADTWDEFSGVKGSVRPGGGINMMLSPKVKDVSKSIQEERSHAKGGLNNAPAAKAQVVGWPPIRSYRKNTMASSTSKNTDEVDGKPGLGVLFVKVSMDGAPYLRKVDLRTYTSYQQLSSALEKMFSCFTLGQCGLHGAQGRERMSEIKLKDLLHGSEFVLTYEDKDGDWMLVGDVPWEIFTETCQKLKIMKGSDSIGLAPGAVEKSKNKERV
IAA16 (Arabidopsis thaliana, UniProt O24407); baseline: out of 4 tests: 4
IAA18 (Arabidopsis thaliana, UniProt O24408); baseline: out of 4 tests: 4
ARF6 790-935 (Arabidopsis thaliana, UniProt Q9ZTX8); baseline: out of 4 tests: 3
IAA28 (Arabidopsis thaliana, UniProt Q9XFM0); baseline: out of 2 tests: 2
IAA10 (Arabidopsis thaliana, UniProt Q38828); baseline: out of 4 tests: 2

Series 3
SMILES: O=Nc1c(-c2c(O)[nH]c3ccccc23)[nH]c2ccccc12
Observed: enzyme activity
Mode: inhibitor
Concentration: 0.5 µM
Baseline: control
Endpoint: remaining activity
ABL2 (Homo sapiens, UniProt P42684): 60.3%
NEK1 (Homo sapiens, UniProt Q96PY6): 96.9%
EPHA3 (Homo sapiens, UniProt P29320): 92%
MAPK3 (Homo sapiens, UniProt P27361): 90.4%
TAOK2 (Homo sapiens, UniProt Q9UL54): 96.3%
GRK7 (Homo sapiens, UniProt Q8WTQ7): 84.4%
MST1R (Homo sapiens, UniProt Q04912): 103%
TEK (Homo sapiens, UniProt Q02763): 98.7%
NEK6 (Homo sapiens, UniProt Q9HC98): 92.2%
JAK3 (Homo sapiens, UniProt P52333): 51.5%
WEE1 (Homo sapiens, UniProt P30291): 87.1%
FRK (Homo sapiens, UniProt P42685): 73.3%
CSNK1G3 (Homo sapiens, UniProt Q9Y6M4): 81.9%

Series 4
SMILES: O=C(NC[C@@H]1[C@H]2CN(C(=O)OCc3cc(C(F)(F)F)cc(C(F)(F)F)c3)C[C@@H]12)c1ccc2[nH]nnc2c1
Observed: cell-free assay
Method: competition with immobilised ligand
Concentration: 1 µM
Endpoint: remaining binding
ULK1 (Homo sapiens, UniProt O75385): 92%
PRKCE (Homo sapiens, UniProt Q02156): 100%
COQ8A (Homo sapiens, UniProt Q8NI60): 100%
STK32B (Homo sapiens, UniProt Q9NY57): 100%

A few entries again (series 2):
IAA10 (Arabidopsis thaliana, UniProt Q38828); baseline: out of 4 tests: 2
ARF6 790-935 (Arabidopsis thaliana, UniProt Q9ZTX8); baseline: out of 4 tests: 3
